{"data": "Measured values from different studies", "note": "Each numbered part is a random draw from the data of one study; scales do not carry over between parts. Substitutions count along the parent as printed."}
{"data": "Series 1", "target": "ABI1, truncated, D143A, DHFR fusion (Arabidopsis thaliana)", "technique": "DHFR PCA, deep sequencing", "sample": "yeast", "notes": "methotrexate growth selection, single substitutions", "with": "(+)-ABA 17 µM", "baseline": "wild-type fitted maximum", "direction": "higher = stronger binding", "parent": "PYL1, truncated, DHFR fusion (Arabidopsis thaliana); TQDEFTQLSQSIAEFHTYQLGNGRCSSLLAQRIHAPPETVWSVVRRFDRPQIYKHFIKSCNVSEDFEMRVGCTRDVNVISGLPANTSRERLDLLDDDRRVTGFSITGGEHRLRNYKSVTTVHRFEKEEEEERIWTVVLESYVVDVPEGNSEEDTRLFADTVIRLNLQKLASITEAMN"}
{"Variant": "A13N", "relative binding score": "77.4%"}
{"Variant": "E151A", "relative binding score": "91.5%"}
{"Variant": "M176F", "relative binding score": "70.6%"}
{"Variant": "E147K", "relative binding score": "80.2%"}
{"Variant": "A13T", "relative binding score": "77.7%"}
{"Variant": "T1Q", "relative binding score": "84.7%"}
{"Variant": "R98M", "relative binding score": "69.7%"}
{"Variant": "N165S", "relative binding score": "2.85%"}
{"Variant": "L93Y", "relative binding score": "86.6%"}
{"Variant": "G21L", "relative binding score": "71%"}
{"Variant": "G102W", "relative binding score": "21.9%"}
{"Variant": "D144P", "relative binding score": "21.9%"}
{"Variant": "H34L", "relative binding score": "77.6%"}
{"Variant": "Q19E", "relative binding score": "89.2%"}
{"Variant": "I105V", "relative binding score": "81%"}
{"Variant": "F5L", "relative binding score": "89%"}
{"Variant": "F103C", "relative binding score": "-10.7%"}
{"data": "Series 2", "target": "HLF, bZIP domain (human)", "technique": "DHFR protein complementation", "sample": "yeast", "notes": "single substitutions, most at no-binding floor", "baseline": "wild-type JUN-FOS pair", "direction": "higher = stronger binding", "parent": "JUN, bZIP domain (human); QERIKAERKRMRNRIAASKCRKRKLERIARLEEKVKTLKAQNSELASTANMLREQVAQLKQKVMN; partner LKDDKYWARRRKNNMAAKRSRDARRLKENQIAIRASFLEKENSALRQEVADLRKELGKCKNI"}
{"Variant": "L31V", "binding fitness [natural log]": -1.47}
{"Variant": "K34Y", "binding fitness [natural log]": -1.37}
{"Variant": "L31C", "binding fitness [natural log]": -1.36}
{"Variant": "A57W", "binding fitness [natural log]": -1.46}
{"Variant": "L45Q", "binding fitness [natural log]": -1.59}
{"Variant": "N42D", "binding fitness [natural log]": -1.47}
{"Variant": "R30P", "binding fitness [natural log]": -1.32}
{"Variant": "K39V", "binding fitness [natural log]": -1.34}
{"Variant": "L38S", "binding fitness [natural log]": -1.46}
{"Variant": "E54H", "binding fitness [natural log]": -1.52}
{"Variant": "N42W", "binding fitness [natural log]": -1.49}
{"Variant": "A57E", "binding fitness [natural log]": -1.39}
{"Variant": "S43N", "binding fitness [natural log]": -1.33}
{"Variant": "S43F", "binding fitness [natural log]": -1.45}
{"Variant": "Q41A", "binding fitness [natural log]": -1.44}
{"Variant": "E44S", "binding fitness [natural log]": -1.53}
{"Variant": "E32F", "binding fitness [natural log]": -1.38}
{"Variant": "L38K", "binding fitness [natural log]": -1.41}
{"Variant": "E32T", "binding fitness [natural log]": -1.39}
{"data": "Series 3", "target": "Interferon regulatory factor 5, full length, phosphomimetic (IRF5, Homo sapiens, UniProt Q13568-2, residues 1-514, S451D/S453D/S456D/S462D)", "technique": "protein-binding microarray", "molecule type": "double-stranded DNA, one strand shown", "sample": "in vitro", "tested at": "940 nM top", "notes": "60-bp whole probe", "with": "salmon DNA 0.4 mg/ml", "baseline": "random background probes", "direction": "higher = stronger binding", "constant ends, left off below": "GCCTAGCAC … GTCTTGATTCGCTTGACGCTGCTG"}
{"Sequence": "TTAGGTTTCGGGCTCGGTTAGTGCTAG", "fitted relative affinity [z-score]": 8.59}
{"Sequence": "TTAGGTATCGGATTTCGGTTAGTGCTA", "fitted relative affinity [z-score]": 4.44}
{"Sequence": "GACGTACTGGGGTATCGGGACGTGCTA", "fitted relative affinity [z-score]": 0.62}
{"Sequence": "GACGGGCTGGGTATCGGGACGTGCTAG", "fitted relative affinity [z-score]": 0.605}
{"Sequence": "CAAATTGTCTCTGTCCCTGTGTGCTAG", "fitted relative affinity [z-score]": 1.45}
{"Sequence": "TACGGTATCGACTTTCGGGACGTGCTA", "fitted relative affinity [z-score]": 3.67}
{"Sequence": "AACGATCTCAGTCTCGAGACGTGCTAG", "fitted relative affinity [z-score]": 1.36}
{"Sequence": "TTAGAACTGGGGTATCGATAAGTGCTA", "fitted relative affinity [z-score]": 2.19}
{"Sequence": "GACGGACTGTTACTGCTGACGTGCTAG", "fitted relative affinity [z-score]": -0.254}
{"Sequence": "GACGATTTCAGTAACGAGACGTGCTAG", "fitted relative affinity [z-score]": 0.339}
{"Sequence": "GACGGTCTCGGTTTCGTGACGTGCTAG", "fitted relative affinity [z-score]": 4.74}
{"Sequence": "TTAGGACTGAACTTTCGGTTAGTGCTA", "fitted relative affinity [z-score]": 1.56}
{"Sequence": "GACGAACTGGGGTTTCGAGTCGTGCTA", "fitted relative affinity [z-score]": 3.51}
{"Sequence": "TCAATTGGTTGAACATGACTGTGCTAG", "fitted relative affinity [z-score]": -0.458}
{"Sequence": "TCAAACTTTTTTCTGATACTGTGCTAG", "fitted relative affinity [z-score]": 0.8}
{"Sequence": "GACGAGCTCAGTATCGAGACGTGCTAG", "fitted relative affinity [z-score]": 2.38}
{"Sequence": "TTAGGTCTGGGGTATCGGTTAGTGCTA", "fitted relative affinity [z-score]": 2.36}
{"Sequence": "ATAGGTCTCCTTCTCCTTTAGTGCTAG", "fitted relative affinity [z-score]": 0.301}
{"data": "Series 4", "target": "Fragile X messenger ribonucleoprotein 1, C-terminal low-complexity region (Fmr1, Mus musculus, UniProt P35922)", "technique": "RNA Bind-n-Seq", "molecule type": "RNA", "sample": "in vitro", "tested at": "200 nM", "notes": "whole 134-nt RNA, ends assumed", "with": "150 mM LiCl", "baseline": "input library", "direction": "higher = stronger binding", "each molecule": "7-deaza-guanosine replaces G", "constant ends, left off below": "GGGAGUUCUACAGUCCGACGAUC … UGGAAUUCUCGGGUGUCAAGG"}
{"Sequence": "ACCAUGCAGGUAGGCAUCUUUGGGAAGUGGGGCAAGGGGGGGAUAGGGAGGGGGGUAACACUUUGGGAACAGGUGGUCCCAGGUCGUUUC", "log2 enrichment": 1.4}
{"Sequence": "GUCCUGUGCUACACAUCGUAUGUACCGAAUCGGGGAAAGGGGUUUUUUUGGGGUGGGGAAAGUAUUAUGUUACGCCGUUCGGAUCUGCAC", "log2 enrichment": -0.52}
{"Sequence": "AGUCCUGUGCUACACAUCGUAUGUACCGAAUCGGUUUUUUUGGAAAGGUUUUUUUGGAAAGUAUUAUGUUACGCCGUUCGGAUCUGCACU", "log2 enrichment": -2.95}
{"Sequence": "CAAGUCCUGUGCUACACAUCGUAUGUACCGAAUCGGGAAAGGGGAAAGGAAAGGGAAAGUAUUAUGUUACGCCGUUCGGAUCUGCACUUC", "log2 enrichment": -0.561}
{"Sequence": "GCAGGAAGUAAAAACAAAUAAAAAUGCUUCGGAUAGUGGCAGGGGUGGGGGUUGCUAAGGAAAGGGUGGGAUGGGAGUGGGUAAAGAGUU", "log2 enrichment": 1.3}
{"Sequence": "CACAGACAACACGCACCCACACAGACACAGAGGGAAGGGGUUGGGAUGGGGGCAGGGUGCACAGCAGGGCGGGGUAGGACCCCAGCCCCU", "log2 enrichment": 0.0193}
{"Sequence": "GCAGGAAGUAAAAACAAAUGGAAAUGCUUCGGACAGUGGCAGGGGUGGGGGUUGCUAAGGAAAGGGUGGGAUGGGAGUGGGUAAAGAGUU", "log2 enrichment": 1.39}
{"Sequence": "UGGCCCUGGUGGCAUGCGGGGAGGAAGAGGUGGCCUCAUGGAUCGUGGUGGACCCGGUGGAAUGUUCAGAGGUGGCCGUGGUGGAGACAG", "log2 enrichment": 0.542}
{"data": "Series 5", "target": "CCND2, cyclin fold, Cln2 fusion (human)", "technique": "yeast growth competition, sequencing", "sample": "yeast", "notes": "weak parent motif", "baseline": "not given", "direction": "higher = stronger binding", "parent": "WEE1 docking peptide (human); HKTFRKLRLFDTP; partner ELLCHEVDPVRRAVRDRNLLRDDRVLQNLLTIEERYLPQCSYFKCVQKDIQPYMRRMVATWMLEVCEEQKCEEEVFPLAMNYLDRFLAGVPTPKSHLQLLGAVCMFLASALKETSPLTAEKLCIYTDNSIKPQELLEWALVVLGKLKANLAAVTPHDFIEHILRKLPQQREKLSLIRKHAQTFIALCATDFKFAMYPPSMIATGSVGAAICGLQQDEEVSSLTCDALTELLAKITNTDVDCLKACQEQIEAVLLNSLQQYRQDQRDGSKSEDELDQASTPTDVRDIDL"}
{"Variant": "R8M", "normalised enrichment score": 0.342}
{"Variant": "T3P", "normalised enrichment score": -0.0169}
{"Variant": "L9M", "normalised enrichment score": -0.0511}
{"Variant": "R8S", "normalised enrichment score": 0.351}
{"Variant": "R5V", "normalised enrichment score": -0.567}
{"Variant": "L9Y", "normalised enrichment score": 0.709}
{"Variant": "H1T", "normalised enrichment score": 0.356}
{"Variant": "R8P", "normalised enrichment score": -0.118}
{"Variant": "R5A L7A", "normalised enrichment score": 0.293}
{"Variant": "F4W", "normalised enrichment score": 0.298}
{"Variant": "P13M", "normalised enrichment score": 0.652}
{"Variant": "P13L", "normalised enrichment score": -0.0672}
{"Variant": "H1A", "normalised enrichment score": -0.0475}
{"Variant": "F10I", "normalised enrichment score": 0.419}
{"Variant": "P13Q", "normalised enrichment score": -0.318}
{"Variant": "F4Q", "normalised enrichment score": -0.0117}
{"Variant": "D11S", "normalised enrichment score": -0.251}
{"note": "Some of these lines once more (series 5):"}
{"Variant": "R5V", "normalised enrichment score": -0.567}
{"Variant": "L9Y", "normalised enrichment score": 0.709}
{"Variant": "H1T", "normalised enrichment score": 0.356}
{"Variant": "R8P", "normalised enrichment score": -0.118}
{"Variant": "R5A L7A", "normalised enrichment score": 0.293}
{"Variant": "F4W", "normalised enrichment score": 0.298}
{"Variant": "P13M", "normalised enrichment score": 0.652}
{"Variant": "P13L", "normalised enrichment score": -0.0672}
